Results from different studies.
Each numbered part is a random draw from the data of one study; scales do not carry over between parts. pIC50: −log10 of the molar value.
UniProt Q96NX5, sequence (whole entry, looked up): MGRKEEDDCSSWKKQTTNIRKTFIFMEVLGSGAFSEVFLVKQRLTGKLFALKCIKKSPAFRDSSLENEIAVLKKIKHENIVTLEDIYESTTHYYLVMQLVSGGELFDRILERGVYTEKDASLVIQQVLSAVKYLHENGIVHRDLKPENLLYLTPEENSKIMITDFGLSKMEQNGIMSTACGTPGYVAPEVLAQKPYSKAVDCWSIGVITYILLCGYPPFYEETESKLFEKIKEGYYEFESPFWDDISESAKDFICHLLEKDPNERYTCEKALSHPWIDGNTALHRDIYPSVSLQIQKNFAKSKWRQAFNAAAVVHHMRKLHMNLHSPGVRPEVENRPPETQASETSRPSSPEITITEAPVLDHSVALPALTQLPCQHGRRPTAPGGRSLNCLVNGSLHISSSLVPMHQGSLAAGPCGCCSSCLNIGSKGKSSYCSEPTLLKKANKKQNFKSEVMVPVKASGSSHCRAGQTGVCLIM
UniProt Q02156, sequence (whole entry, looked up): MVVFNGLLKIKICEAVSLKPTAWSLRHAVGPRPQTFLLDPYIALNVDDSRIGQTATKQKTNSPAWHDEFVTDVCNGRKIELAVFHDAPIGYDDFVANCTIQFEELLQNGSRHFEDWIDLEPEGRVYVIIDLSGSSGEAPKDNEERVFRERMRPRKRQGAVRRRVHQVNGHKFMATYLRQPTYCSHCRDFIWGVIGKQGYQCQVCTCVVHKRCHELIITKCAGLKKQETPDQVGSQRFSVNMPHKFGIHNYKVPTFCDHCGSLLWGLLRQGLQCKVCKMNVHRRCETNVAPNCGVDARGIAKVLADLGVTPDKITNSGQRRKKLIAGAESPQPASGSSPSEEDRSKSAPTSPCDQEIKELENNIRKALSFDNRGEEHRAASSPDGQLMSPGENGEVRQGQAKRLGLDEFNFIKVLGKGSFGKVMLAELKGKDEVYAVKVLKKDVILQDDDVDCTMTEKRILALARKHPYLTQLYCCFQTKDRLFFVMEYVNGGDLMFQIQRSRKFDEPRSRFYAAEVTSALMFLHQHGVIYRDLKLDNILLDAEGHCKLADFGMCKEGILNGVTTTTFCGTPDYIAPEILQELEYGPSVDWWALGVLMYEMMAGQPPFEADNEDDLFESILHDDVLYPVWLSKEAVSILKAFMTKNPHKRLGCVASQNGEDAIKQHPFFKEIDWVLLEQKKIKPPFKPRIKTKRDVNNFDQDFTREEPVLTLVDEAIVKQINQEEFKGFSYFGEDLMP
UniProt P00519, sequence (whole entry, unmodified, looked up): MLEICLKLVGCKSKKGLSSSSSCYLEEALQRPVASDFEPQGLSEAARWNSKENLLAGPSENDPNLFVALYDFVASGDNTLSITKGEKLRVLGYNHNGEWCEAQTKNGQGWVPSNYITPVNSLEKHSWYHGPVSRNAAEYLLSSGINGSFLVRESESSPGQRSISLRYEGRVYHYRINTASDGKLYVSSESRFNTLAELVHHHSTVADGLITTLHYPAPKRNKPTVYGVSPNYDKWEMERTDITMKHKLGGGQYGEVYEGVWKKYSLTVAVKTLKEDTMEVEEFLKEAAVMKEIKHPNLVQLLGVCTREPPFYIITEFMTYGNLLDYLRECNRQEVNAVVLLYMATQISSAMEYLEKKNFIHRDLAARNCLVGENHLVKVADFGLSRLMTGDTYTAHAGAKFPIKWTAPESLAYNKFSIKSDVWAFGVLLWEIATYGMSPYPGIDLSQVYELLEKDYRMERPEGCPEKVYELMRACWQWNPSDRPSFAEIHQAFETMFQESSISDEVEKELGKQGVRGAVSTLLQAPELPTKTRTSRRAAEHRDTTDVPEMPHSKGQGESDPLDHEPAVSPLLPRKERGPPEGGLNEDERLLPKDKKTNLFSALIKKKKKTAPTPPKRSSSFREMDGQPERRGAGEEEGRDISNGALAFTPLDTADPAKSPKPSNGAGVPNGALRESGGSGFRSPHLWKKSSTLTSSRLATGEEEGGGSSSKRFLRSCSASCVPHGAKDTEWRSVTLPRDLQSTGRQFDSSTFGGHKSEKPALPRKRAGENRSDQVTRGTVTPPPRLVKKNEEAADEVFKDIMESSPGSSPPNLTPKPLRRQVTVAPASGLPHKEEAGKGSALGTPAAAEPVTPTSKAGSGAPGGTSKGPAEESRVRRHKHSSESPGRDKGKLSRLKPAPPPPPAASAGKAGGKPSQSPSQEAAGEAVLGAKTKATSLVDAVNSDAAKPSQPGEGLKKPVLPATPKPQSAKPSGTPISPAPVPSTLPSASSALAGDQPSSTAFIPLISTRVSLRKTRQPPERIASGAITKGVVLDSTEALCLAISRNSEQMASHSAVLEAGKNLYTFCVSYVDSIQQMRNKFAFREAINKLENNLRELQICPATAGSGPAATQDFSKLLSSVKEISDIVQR
UniProt P49761, sequence (whole entry, looked up): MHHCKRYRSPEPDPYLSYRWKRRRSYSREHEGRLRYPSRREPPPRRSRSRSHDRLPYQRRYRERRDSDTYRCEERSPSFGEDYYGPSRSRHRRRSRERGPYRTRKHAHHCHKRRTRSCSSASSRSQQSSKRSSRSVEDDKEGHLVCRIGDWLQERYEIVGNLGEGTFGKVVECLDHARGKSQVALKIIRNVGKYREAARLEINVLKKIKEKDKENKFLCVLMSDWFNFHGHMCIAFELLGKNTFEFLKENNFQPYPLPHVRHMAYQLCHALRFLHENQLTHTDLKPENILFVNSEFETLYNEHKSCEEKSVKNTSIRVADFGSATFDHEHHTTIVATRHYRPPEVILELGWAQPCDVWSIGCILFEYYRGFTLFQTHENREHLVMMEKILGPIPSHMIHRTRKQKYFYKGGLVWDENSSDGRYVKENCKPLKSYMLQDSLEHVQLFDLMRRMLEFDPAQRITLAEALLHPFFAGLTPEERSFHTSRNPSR
UniProt Q8NEB9, sequence (whole entry, looked up): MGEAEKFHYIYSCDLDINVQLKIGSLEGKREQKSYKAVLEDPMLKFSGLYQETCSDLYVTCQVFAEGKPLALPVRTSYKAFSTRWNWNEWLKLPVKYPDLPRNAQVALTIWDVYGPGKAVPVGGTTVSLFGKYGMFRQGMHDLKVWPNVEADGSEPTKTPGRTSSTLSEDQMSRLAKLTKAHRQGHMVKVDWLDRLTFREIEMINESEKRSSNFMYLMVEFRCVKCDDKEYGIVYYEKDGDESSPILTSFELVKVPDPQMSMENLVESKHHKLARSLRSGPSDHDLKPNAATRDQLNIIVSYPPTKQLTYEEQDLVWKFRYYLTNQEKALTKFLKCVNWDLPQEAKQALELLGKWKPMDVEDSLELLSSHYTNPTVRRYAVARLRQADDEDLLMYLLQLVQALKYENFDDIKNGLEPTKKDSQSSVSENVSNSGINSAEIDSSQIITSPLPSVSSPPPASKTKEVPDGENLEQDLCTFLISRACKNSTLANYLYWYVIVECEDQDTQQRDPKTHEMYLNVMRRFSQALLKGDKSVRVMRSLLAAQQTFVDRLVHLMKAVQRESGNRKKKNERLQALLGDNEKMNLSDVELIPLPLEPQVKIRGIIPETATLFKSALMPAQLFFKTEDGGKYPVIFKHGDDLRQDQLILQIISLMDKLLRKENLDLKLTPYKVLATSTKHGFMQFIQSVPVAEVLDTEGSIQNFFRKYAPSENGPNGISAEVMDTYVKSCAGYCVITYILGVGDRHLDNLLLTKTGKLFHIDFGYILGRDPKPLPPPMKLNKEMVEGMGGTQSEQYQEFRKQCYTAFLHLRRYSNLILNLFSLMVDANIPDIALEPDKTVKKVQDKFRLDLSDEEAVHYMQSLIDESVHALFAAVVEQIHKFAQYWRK
UniProt Q13546, sequence (whole entry, looked up): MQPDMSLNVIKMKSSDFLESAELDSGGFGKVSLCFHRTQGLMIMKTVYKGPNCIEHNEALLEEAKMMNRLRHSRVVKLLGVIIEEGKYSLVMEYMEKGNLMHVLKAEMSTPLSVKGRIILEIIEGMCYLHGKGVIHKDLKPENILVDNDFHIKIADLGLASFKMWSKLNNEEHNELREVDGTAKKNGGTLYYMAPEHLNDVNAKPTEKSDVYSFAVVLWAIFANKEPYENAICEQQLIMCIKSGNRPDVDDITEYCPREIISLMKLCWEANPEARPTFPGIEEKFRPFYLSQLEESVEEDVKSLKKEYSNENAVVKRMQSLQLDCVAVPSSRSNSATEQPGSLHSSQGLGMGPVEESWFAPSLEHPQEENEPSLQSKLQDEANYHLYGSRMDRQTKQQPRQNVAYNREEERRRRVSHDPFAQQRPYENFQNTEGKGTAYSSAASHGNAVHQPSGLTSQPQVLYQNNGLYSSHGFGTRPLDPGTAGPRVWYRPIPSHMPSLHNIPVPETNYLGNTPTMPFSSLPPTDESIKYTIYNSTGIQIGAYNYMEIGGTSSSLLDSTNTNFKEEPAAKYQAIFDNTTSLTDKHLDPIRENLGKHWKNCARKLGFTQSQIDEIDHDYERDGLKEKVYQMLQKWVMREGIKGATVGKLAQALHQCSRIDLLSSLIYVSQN

Block 1 — mode: antagonist
Target: Beta-1 adrenergic receptor (ADRB1, Homo sapiens, UniProt P08588)
UniProt P08588, sequence (whole entry, looked up): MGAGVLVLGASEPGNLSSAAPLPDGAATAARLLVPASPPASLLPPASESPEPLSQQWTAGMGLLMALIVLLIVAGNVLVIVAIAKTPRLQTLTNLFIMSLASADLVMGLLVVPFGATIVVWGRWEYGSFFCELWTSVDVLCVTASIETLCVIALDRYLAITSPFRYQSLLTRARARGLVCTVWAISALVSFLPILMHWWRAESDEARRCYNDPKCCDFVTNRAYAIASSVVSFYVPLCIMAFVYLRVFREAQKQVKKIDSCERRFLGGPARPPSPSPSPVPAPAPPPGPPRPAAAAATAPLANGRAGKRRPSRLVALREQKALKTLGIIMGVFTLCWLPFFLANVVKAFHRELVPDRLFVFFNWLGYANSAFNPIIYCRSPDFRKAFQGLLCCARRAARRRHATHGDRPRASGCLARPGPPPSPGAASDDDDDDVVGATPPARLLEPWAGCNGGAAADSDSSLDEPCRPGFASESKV
SMILES	pIC50
O=C1CCn2nnc(CNc3cccc(C(F)(F)F)c3)c2CN1Cc1ccccc1	≤ 4.00
COc1cc(-c2cc(-c3cccs3)nc3c(C)noc23)ccn1	≤ 4.00
c1ccc(-n2ncc3c(N4CCNc5ccccc5C4)ncnc32)cc1	≤ 4.00
Clc1cccc(-c2c[nH]c([C@@H]3COCCN3Cc3cnc4ccccc4c3)n2)c1	≤ 4.00
COc1cc(-c2cc(-c3ccccc3)nc3c(C)noc23)ccn1	≤ 4.00

Block 2 — observed: enzyme activity; mode: inhibitor; concentration: 0.5 µM; relative to: control
Target: cAMP-dependent protein kinase catalytic subunit PRKX (PRKX, Homo sapiens, UniProt P51817)
Residues (P51817 1-358): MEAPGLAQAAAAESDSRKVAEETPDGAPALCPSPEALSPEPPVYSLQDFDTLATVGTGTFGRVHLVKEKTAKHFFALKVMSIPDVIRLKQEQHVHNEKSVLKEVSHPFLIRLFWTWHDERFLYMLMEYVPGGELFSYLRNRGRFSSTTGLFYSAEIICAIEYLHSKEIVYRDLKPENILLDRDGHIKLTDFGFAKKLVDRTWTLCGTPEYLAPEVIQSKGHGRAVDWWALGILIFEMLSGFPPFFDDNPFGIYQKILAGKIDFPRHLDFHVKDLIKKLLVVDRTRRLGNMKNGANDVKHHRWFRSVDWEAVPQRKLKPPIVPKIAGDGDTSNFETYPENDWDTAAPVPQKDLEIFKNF
SMILES	remaining activity
Nc1nc(Nc2ccc(S(N)(=O)=O)cc2)nn1C(=O)c1c(F)cccc1F	89%
COc1ccc(S(=O)(=O)N(CCO)c2ccccc2CN(C)CC=Cc2ccc(Cl)cc2)cc1	104%
O=S(=O)(NCCNC/C=C/c1ccc(Br)cc1)c1cccc2cnccc12	-2.49%
Fc1ccc(-c2nc3n(c2-c2ccncc2)CCS3)cc1	97.6%
Cc1ccc(NC2=CC(=O)c3sc(C)nc3C2=O)cc1	96.8%
NC(=O)c1ccc(N(C(N)=O)c2c(F)cccc2F)nc1-c1ccc(F)cc1F	123%
Cc1cncc2cccc(S(=O)(=O)N3CCCN(C(=O)CN)C[C@@H]3C)c12	54.2%
COc1cc(Nc2c(C#N)cnc3cc(OCCCN4CCN(C)CC4)c(OC)cc23)c(Cl)cc1Cl	110%

Block 3 — cell line: mouse MPNST tumor cells; method: high-content immunofluorescence imaging; item: nuclear SOX9; concentration: 10 µM; time: 12 h; notes: mean of 2 replicates; relative to: DMSO control; direction: higher = more nuclear SOX9
SMILES	nuclear SOX9 intensity
COc1ccc(-c2cc(=S)ss2)cc1	96.9 % of DMSO
FC(F)(F)c1cc(NC(=S)Nc2ccc(Br)cc2-c2nn[nH]n2)cc(C(F)(F)F)c1	106 % of DMSO
CCOC(=O)[C@@](C)(N)Cc1ccc(O)c(O)c1	94.4 % of DMSO
CC(CN(C)C)CN1c2ccccc2Sc2ccccc21 (stereo not shown)	204 % of DMSO

Block 4 — method: competition with immobilised ligand; concentration: 1 µM
SMILES: O=C(NCc1ncc(C(F)(F)F)cc1Cl)c1ccc2c(c1)C1(CCS(=O)(=O)CC1)[C@H](C1CC1)N2S(=O)(=O)c1ccc(F)cc1
target	test	remaining binding [%]
Protein kinase C epsilon type (PRKCE, Homo sapiens, UniProt Q02156)	cell-free assay	69
Calcium/calmodulin-dependent protein kinase type 1G (CAMK1G, Homo sapiens, UniProt Q96NX5)	cell-free assay	98
Hormonally up-regulated neu tumor-associated kinase (HUNK, Homo sapiens, UniProt P57058)	cell-free assay	84
BDNF/NT-3 growth factors receptor (NTRK2, Homo sapiens, UniProt Q16620)	cell-free assay	60
Serine/threonine-protein kinase 16 (STK16, Homo sapiens, UniProt O75716)	cell-free assay	88
Dual specificity protein kinase CLK3 (CLK3, Homo sapiens, UniProt P49761)	cell-free assay	86
Phosphatidylinositol 3-kinase catalytic subunit type 3 (PIK3C3, Homo sapiens, UniProt Q8NEB9)	cell-free assay	86
Tyrosine-protein kinase ABL1, non-phosphorylated (ABL1, Homo sapiens, UniProt P00519, F317L)	cell-free assay	74
Dual specificity mitogen-activated protein kinase kinase 6 (MAP2K6, Homo sapiens, UniProt P52564)	cell-free assay	100
Receptor-interacting serine/threonine-protein kinase 1 (RIPK1, Homo sapiens, UniProt Q13546)	cell-free assay	100
Bone morphogenetic protein receptor type-1A (BMPR1A, Homo sapiens, UniProt P36894)	binding	100

For quick reference, copied from above (block 2):
SMILES	remaining activity
Fc1ccc(-c2nc3n(c2-c2ccncc2)CCS3)cc1	97.6%
COc1ccc(S(=O)(=O)N(CCO)c2ccccc2CN(C)CC=Cc2ccc(Cl)cc2)cc1	104%
COc1cc(Nc2c(C#N)cnc3cc(OCCCN4CCN(C)CC4)c(OC)cc23)c(Cl)cc1Cl	110%
NC(=O)c1ccc(N(C(N)=O)c2c(F)cccc2F)nc1-c1ccc(F)cc1F	123%
